Measured values of several laboratories.
Each numbered part is a random draw from the data of one study; scales do not carry over between parts. Positions count from the first letter of the parent shown.

Series 1 — method: universal PBM; form: double-stranded DNA, one strand shown; medium: in vitro; tested at: not given; direction: higher = stronger binding
Target: Sal-like protein 4, full length isoform B (SALL4, Homo sapiens, UniProt Q9UJQ4-2, residues 1-616)
Setting: 8-mer, flanks averaged, mean of replicates
| Sequence | E-score |
| --- | --- |
| TCGCCCAA | -0.0887 |
| AGTCGCGC | -0.207 |
| ACGCCTAC | -0.254 |
| GGACATAA | 0.199 |
| ATGAGATG | -0.0198 |
| GCAAATCC | -0.0388 |
| GTGGGCAA | -0.097 |
| ATGGCGTA | 0.0449 |
| AGTACAGA | 0.107 |
| ACTAACTA | 0.0358 |
| CCAGAAGG | -0.108 |
| AGGGTCAG | -0.234 |

Series 2 — target: CCND3, cyclin fold, Cln2 fusion (human); method: yeast growth competition, sequencing; medium: yeast; setting: weak parent motif; relative to: not given; direction: higher = stronger binding
Starting sequence: CDKN1A docking peptide (human); SKACRRLFGPVDS
| Substitution | normalised enrichment score |
| --- | --- |
| SKTCRRLFGPVDS [A3T] | 0.452 |
| SKACRSLFGPVDS [R6S] | 0.436 |
| SKACPRLFGPVDS [R5P] | -0.132 |
| SEACRRLFGPVDS [K2E] | 0.429 |
| SKACRRLFGPVSS [D12S] | -0.137 |
| SKACRRLPGPVDS [F8P] | 0.107 |
| SKACRILFGPVDS [R6I] | 0.293 |
| SKACRRLFGPVCS [D12C] | 0.395 |
| SKACRRSFGPVDS [L7S] | 0.03 |
| SKAGRRLFGPVDS [C4G] | 0.189 |
| SKACRYLFGPVDS [R6Y] | 0.279 |
| SKQCRRLFGPVDS [A3Q] | 0.243 |
| SKACRRLFSPVDS [G9S] | 0.306 |
| SKACRRLNGPVDS [F8N] | -0.133 |
| SKNCRRLFGPVDS [A3N] | -0.442 |

Series 3 — method: RNA Bind-n-Seq; form: RNA; medium: in vitro; tested at: 200 nM; setting: whole 134-nt RNA, ends assumed; added: 150 mM KCl; relative to: input library; direction: higher = stronger binding
Target: Ras GTPase-activating protein-binding protein 1, full length (G3BP1, Homo sapiens, UniProt Q13283)
Chain of UniProt Q13283 (whole entry, looked up): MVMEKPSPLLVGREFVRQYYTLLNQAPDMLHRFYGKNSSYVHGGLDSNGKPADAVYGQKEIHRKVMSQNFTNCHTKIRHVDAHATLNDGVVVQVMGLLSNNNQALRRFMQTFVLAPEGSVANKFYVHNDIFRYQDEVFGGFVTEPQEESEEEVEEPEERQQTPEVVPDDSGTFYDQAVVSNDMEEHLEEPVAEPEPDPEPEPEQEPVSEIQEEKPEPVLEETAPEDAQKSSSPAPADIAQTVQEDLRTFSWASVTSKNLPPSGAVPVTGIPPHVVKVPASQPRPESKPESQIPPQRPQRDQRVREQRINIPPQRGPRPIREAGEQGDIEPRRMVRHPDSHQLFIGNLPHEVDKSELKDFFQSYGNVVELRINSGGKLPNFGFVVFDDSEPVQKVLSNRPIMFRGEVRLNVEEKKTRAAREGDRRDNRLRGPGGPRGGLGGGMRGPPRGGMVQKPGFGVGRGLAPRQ
Constant ends, left off below: GGGAGUUCUACAGUCCGACGAUC … UGGAAUUCUCGGGUGUCAAGG
| Sequence | log2 enrichment |
| --- | --- |
| UCCUGUGCUACACAUCGUAUGUACCGAAUCGGGGAAAAAGGGGAAAGGGGAAAAAGGGGAAAGUAUUAUGUUACGCCGUUCGGAUCUGCA | 0.511 |
| UGGGAGGUGGAUUUUGUUUAUUUUUUUAGCUCAUUUCCAGGGGUGGGAAUUUUUUUUUAAUAUGUGGCAUGAAUAAAGUUGUUUUUGAAA | 0.264 |
| GUCCUGUGCUACACAUCGUAUGUACCGAAUCGGUUUUUGGGUUUUUGGGGUUUUUGGGAAAGUAUUAUGUUACGCCGUUCGGAUCUGCAC | -0.691 |
| GCAGGAAGUAAAAACAAAUGGAAAUGCUUCGGAUAGUGGCAGGGGUGGGCGUUGCUAAGGAAAGGGUGGGAUGGGAGUGGGUAAAGAGUU | 0.798 |
| CUCAAGUCCUGUGCUACACAUCGUAUGUACCGAAUCGGUUGGGGUUGGGUUGGGAAAGUAUUAUGUUACGCCGUUCGGAUCUGCACUUCC | 0.984 |
| CCUCAAGUCCUGUGCUACACAUCGUAUGUACCGAAUCGGGGCGGCGGGCGGGGAAAGUAUUAUGUUACGCCGUUCGGAUCUGCACUUCCA | 0.872 |
| UGGGAGGUGGAUUUUGUUUAUUUUUUUAGCUCAUUUCCAGGGGUGGGAAUUUUUUUUUAAUAUGUGUCAUGAAUAAACUUGUUUUUGAAA | 0.156 |
| CACAGACAACACGCACCCACACAGACACAGAGGGAAGGGGUUGGGAUGGGGACAGGGUGCAUAGCAGGGCGGGGUAGGACCCCAGCCCCU | 1.74 |
| CUCAAGUCCUGUGCUACACAUCGUAUGUACCGAAUCGGGGAAGGAAGGGAAGGAAAGUAUUAUGUUACGCCGUUCGGAUCUGCACUUCCA | -0.11 |
| GCAGGAAGUAAAAACAAAUGGAAAUGCUUCGGAUAGUGGCAGGGGUGGGGGUUGCUAAGGAAAGGGUGGGAUGGGAGGGGGUAAAGAGUU | 0.951 |
| CAAAGACAACACGCACCCACACAGACACAGAGGGAAGGGGUUGGGAUGGGGACAGGGUGCACAGCAGGGCGGGGUAGGACCCCAGCCCCU | 1.84 |
| AGUCCUGUGCUACACAUCGUAUGUACCGAAUCGGGAAAAGGGGAAAAGGGGAAAAGGAAAGUAUUAUGUUACGCCGUUCGGAUCUGCACU | -0.337 |
| CACAGACAACACGCACCCACACAGACACAGAGGGAAGGGGUUGGGAUGGGGACAGGGUGCACAGCAGGGCGGGGUAGGACCCCAACCCCU | 1.89 |
| GCAGGAAGUAAAAACAAAUGGAAAUGCUUCGGAUAGAGGCAGGGGUGGGGGUUGCUAAGGAAAGGGUGGGAUGGGAGUGGGUAAAGAGUU | 1.52 |

Single results of other studies
| Molecule | target | assay | test system | setting | how to read | endpoint | value |
| --- | --- | --- | --- | --- | --- | --- | --- |
| PhoQ, residues 284 288 289 292 302 303 NLMGRA | PhoP, residues 12 14 15 18 19 IFFTR (Escherichia coli, UniProt P23836) | Sort-seq, item: YFP reporter | E. coli | PhoQ-PhoP variant library, added: 10 µM Mg2+ | relative to: high Mg2+ state, higher = stronger signaling | fold induction | 2.71 |

For quick reference, copied from above (series 2):
| Substitution | normalised enrichment score |
| --- | --- |
| SKACRRLPGPVDS [F8P] | 0.107 |
| SKACRRSFGPVDS [L7S] | 0.03 |
| SKQCRRLFGPVDS [A3Q] | 0.243 |
| SEACRRLFGPVDS [K2E] | 0.429 |
| SKACRSLFGPVDS [R6S] | 0.436 |
| SKACRRLFGPVSS [D12S] | -0.137 |
